Measurements collected from several papers.
Target: Serine/threonine-protein kinase Nek4 (NEK4, Homo sapiens, UniProt P51957)

Compound | test | test system | setting | how to read | quantity | value
COc1c(Cl)cccc1Nc1c(-c2ccncc2C#C[C@@]2(C)CCCN2C(=O)/C=C/CN(C)C)[nH]c2c1C(=O)NCC2 | binding, competition with immobilised ligand |  | 3 µM |  | remaining binding | 83%
NC(=O)C[C@H]1CCc2sc3ncnc(O[C@H]4CC[C@H](N5CCOCC5)CC4)c3c21 | enzyme activity, inhibitor |  | 10 µM |  | inhibition | 3%
CN1CC[C@@H](COc2cnc(C#N)cc2-c2ccn3nc(NC(=O)C4CC4)cc3c2)C1 | enzyme activity, inhibitor |  | 1 µM |  | inhibition | 2%
C=CC(=O)N1CCCC(n2c(=O)c3ncccc3n(Cc3ccc(Oc4ccccc4)cc3)c2=O)C1 (stereo not drawn) | cell-free assay, competition with immobilised ligand |  | 1 µM |  | remaining binding | 87%
C=CC(=O)N1CCc2ccc(-n3c(=O)ccc4cnc5ccc(-c6cnn(C)c6)cc5c43)cc21 | KINOMEscan |  | 1 µM | reference: DMSO control | remaining binding | 100%
CNC1C[S+]2CC[S+]3CC[S+](C1)[Ru-4]321([N]=C=S)[n]2c3ccc(OC)cc3c3c4c(c5cc(F)c[n+]1c5c32)C(=O)NC4=O (stereo not drawn) | KinomeScan |  | 0.1 µM | reference: untreated | remaining binding | 100%
CS(=O)(=O)Nc1cccc(-c2csc3cnc(Nc4ccc(N5CCN(CCCCCOc6cccc7c6C(=O)N(C6CCC(=O)NC6=O)C7=O)CC5)cc4)nc23)c1 (stereo not drawn) | probe labelling, inhibitor, KiNativ chemoproteomics | MOLT-4 | 1 µM |  | inhibition | 6.75%
O=C(Cc1ccc(OCc2ccccc2)cc1)NC1(C(=O)O)CCN(C(=O)c2ccc(-c3cccc(Cl)c3)cc2)CC1 | enzyme activity, inhibitor |  | 10 µM |  | activity vs control | 104%
CCn1cc(C(=O)O)c(=O)c2c(N)c(F)c(NC3CCCCC3)cc21 | kinase activity |  | 0.1 µM, together with: ATP at Km |  | inhibition | -6.6%
C=CC(=O)Nc1cc(-c2nn(C3CCN(CCNC(=O)[C@H](C)CCC45CC6CC(CC(C6)C4)C5)CC3)c3ncnc(N)c23)ccc1Oc1ccccc1 | inhibitor, KiNativ profiling | biochemical | 2 µM |  | inhibition | 7.6%
COc1cc(Nc2nc(C)cc(-c3cnn4nc(OC)ccc34)n2)cc(C(F)(F)F)c1 | inhibitor |  | 1 µM | reference: control | remaining activity | 90%
CNC(=O)C1CCN(c2cc(C)c(F)cc2NC(=O)c2ccc(-c3cc(O)ccc3C)c(C)c2)CC1 | binding, competition with immobilised ligand |  | 1 µM |  | remaining binding | 92%

For quick reference, copied from above:
Compound | test | test system | setting | how to read | quantity | value
O=C(Cc1ccc(OCc2ccccc2)cc1)NC1(C(=O)O)CCN(C(=O)c2ccc(-c3cccc(Cl)c3)cc2)CC1 | enzyme activity, inhibitor |  | 10 µM |  | activity vs control | 104%
COc1cc(Nc2nc(C)cc(-c3cnn4nc(OC)ccc34)n2)cc(C(F)(F)F)c1 | inhibitor |  | 1 µM | reference: control | remaining activity | 90%
